Published values collected from several papers.
Numbers after ± are the reported error.
Sequence of UniProt Q9Y5N1 (whole entry, looked up): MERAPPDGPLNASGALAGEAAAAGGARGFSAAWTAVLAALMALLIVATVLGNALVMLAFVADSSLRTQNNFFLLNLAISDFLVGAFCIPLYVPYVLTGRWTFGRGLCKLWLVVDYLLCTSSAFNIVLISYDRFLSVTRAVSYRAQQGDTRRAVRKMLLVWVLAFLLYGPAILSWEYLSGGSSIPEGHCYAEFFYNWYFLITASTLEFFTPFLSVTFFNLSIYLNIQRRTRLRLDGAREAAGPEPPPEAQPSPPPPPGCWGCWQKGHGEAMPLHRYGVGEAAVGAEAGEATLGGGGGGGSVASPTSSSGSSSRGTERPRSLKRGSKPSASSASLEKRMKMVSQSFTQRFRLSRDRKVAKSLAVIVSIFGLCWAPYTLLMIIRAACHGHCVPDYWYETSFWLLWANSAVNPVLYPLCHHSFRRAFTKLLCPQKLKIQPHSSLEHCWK
Sequence of UniProt Q9Y6E0 (whole entry, looked up): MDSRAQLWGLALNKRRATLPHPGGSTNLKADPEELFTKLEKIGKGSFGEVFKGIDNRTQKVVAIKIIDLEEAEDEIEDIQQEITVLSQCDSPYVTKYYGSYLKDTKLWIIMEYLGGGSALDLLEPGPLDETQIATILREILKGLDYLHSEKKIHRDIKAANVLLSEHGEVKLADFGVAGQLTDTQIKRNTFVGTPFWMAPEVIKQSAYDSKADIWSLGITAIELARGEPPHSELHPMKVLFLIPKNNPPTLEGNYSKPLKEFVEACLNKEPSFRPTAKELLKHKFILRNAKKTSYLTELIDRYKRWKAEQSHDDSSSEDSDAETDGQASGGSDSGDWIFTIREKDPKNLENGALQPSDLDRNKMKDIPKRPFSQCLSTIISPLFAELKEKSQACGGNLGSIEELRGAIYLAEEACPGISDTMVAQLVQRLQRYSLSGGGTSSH
Sequence of UniProt Q9NZ01 (whole entry, looked up): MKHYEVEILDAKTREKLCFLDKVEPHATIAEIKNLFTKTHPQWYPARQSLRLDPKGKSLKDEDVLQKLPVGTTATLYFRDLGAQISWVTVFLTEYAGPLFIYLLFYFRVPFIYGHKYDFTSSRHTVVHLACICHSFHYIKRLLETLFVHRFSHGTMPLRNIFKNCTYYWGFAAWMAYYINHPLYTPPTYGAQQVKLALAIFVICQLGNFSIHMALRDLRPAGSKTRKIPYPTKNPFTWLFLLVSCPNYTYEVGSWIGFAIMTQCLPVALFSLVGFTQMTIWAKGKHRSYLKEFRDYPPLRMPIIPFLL

Compound | tested on | assay | test system | conditions | how to read | measurement | result
O=S(=O)(Nc1ccccc1)c1ccc(NC(=S)Nc2ccccc2)cc1 |  | measured: ALT | male mouse, blood | oral, 20 mg/kg daily, 14 days |  | serum enzyme activity | 50.2 U/L
O=[Se](=O)([O-])[O-].[Na+].[Na+] |  |  | rat | subcutaneous, 0.2 mg/kg |  | Tmax | 1 h
Clc1ccc(-c2cc(Cl)c(Cl)cc2Cl)cc1Cl |  |  | cow whole milk | 50 nM | baseline: milk fat over skim milk | milk fat partition ratio | 420
C[C@H]1CN(c2n[nH]c3nc(N[C@H]4CC[C@H](NS(=O)(=O)CCC(F)(F)F)CC4)ncc23)CCO1 | Very-long-chain enoyl-CoA reductase (Homo sapiens, UniProt Q9NZ01) | Kinobeads competition, measured: GPSN2 |  | 0.032 µM, unit not given | baseline: vehicle | remaining binding | 1.06
COc1cc(Nc2ncc(F)c(Nc3ccc4c(n3)NC(=O)C(C)(C)O4)n2)cc(OC)c1OC | PP1 |  |  |  |  | IC50 | > 10 µM
CN1CC[C@@H](c2c(O)cc(O)c3c(=O)cc(-c4ccc(C(F)(F)F)cc4Cl)oc23)[C@@H]1CO |  | measured: Pyrexia | B-cell malignancies or AML | oral, 50 mg, continuous dosing |  | patients with adverse event | 0%
O=C(O)CCCOc1ccc(F)cc1-c1cc(-c2ccccc2C(F)(F)F)n(-c2ccccc2)n1 |  | measured: ALT | Crl:CD(SD) rats, male, serum | iv, 25 µg/kg, 14 days |  | serum enzyme activity | 34.7 ± 3.9 U/L
CC(C)[C@@H]1NC(=O)CNC(=O)[C@H](CC(N)=O)NC(=O)[C@H](CCCNC(=N)N)NC(=O)[C@H](Cc2ccc(O)cc2)NC(=O)[C@H](C(C)C)NC(=O)[C@@H](NC(=O)[C@@H](NC(=O)[C@H](CC(N)=O)NC(=O)[C@H](Cc2c[nH]c3ccccc23)NC(=O)[C@H](C)NC(=O)[C@H](Cc2ccccc2)NC(=O)CN)C(C)C)CSSC[C@@H](C(=O)N[C@@H](Cc2cnc[nH]2)C(=O)N[C@@H](CCCNC(=N)N)C(=O)N[C@@H](CCCNC(=N)N)C(=O)N[C@@H](C)C(=O)N[C@@H](CC(N)=O)C(N)=O)NC(=O)[C@H](C(C)C)NC(=O)[C@H](CCCNC(=N)N)NC1=O |  |  | ICR mouse, blood | intramammary, 5 mg/kg, day 5, 3 d dosing |  | globulin | 19.23 ± 0.08 g/L
Cc1cc2c(c(O)c1O)C(=O)c1c(O)cc(O)cc1C2=O | HepaRG co-cultured with HK-2 | MTT |  | 66.67 µM, 24 h | baseline: untreated control | cell viability | 54.2 ± 6.54%
COc1ccc([C@@H]2CC(=O)c3c(O)cc(O)cc3O2)cc1O |  |  | Sprague-Dawley rat, male, lean, urine | oral, 100 mg/kg neohesperidin, 48 h | baseline: dose | urinary recovery | 0.471 ± 0.12%
CC[C@H](C)[C@@H]1NC(=O)[C@@H]2CCCN2C(=O)[C@H](CC(C)C)NC(=O)[C@H](CC(C)C)NC(=O)CNC(=O)[C@@H](NC(=O)[C@@H](NC(=O)[C@H](CC(=O)O)NC(=O)CNC(=O)[C@@H](NC(=O)[C@H](C)NC(=O)CNC(=O)[C@H](CCCCN)NC(=O)[C@H](CC(C)C)NC(=O)[C@H](CC(C)C)NC(=O)[C@H](CCCCN)NC(=O)CNC(=O)[C@@H](NC(=O)[C@@H](N)CC(C)C)C(C)C)C(C)C)C(C)C)CSSC[C@@H](C(=O)O)NC1=O |  | RNA-seq, measured: Klra2 mRNA | mouse traumatic brain injury, frontal cortex and hippocampus | dose not given | baseline: TBI plus compound vs TBI | log2 fold change | -2.83
CC[C@H](C)[C@H](NC(=O)[C@H](Cc1ccccc1)NC(=O)[C@H](CCC(=O)O)NC(=O)[C@H](CCCNC(=N)N)NC(=O)[C@H](C)NC(=O)[C@H](C)NC(=O)[C@H](CCC(N)=O)NC(=O)[C@H](CCC(=O)O)NC(=O)[C@H](CCC(=O)O)NC(=O)[C@H](CC(C)C)NC(=O)[C@H](Cc1ccc(O)cc1)NC(=O)[C@H](CO)NC(=O)[C@H](CO)NC(=O)[C@@H](NC(=O)[C@H](CC(=O)O)NC(=O)[C@H](CO)NC(=O)[C@@H](NC(=O)[C@H](Cc1ccccc1)NC(=O)[C@@H](NC(=O)CNC(=O)[C@H](CCC(=O)O)NC(=O)[C@H](C)NC(=O)CCc1c[nH]cn1)[C@@H](C)O)[C@@H](C)O)C(C)C)C(=O)N[C@@H](C)C(=O)N[C@@H](Cc1c[nH]c2ccccc12)C(=O)N[C@@H](CC(C)C)C(=O)N[C@H](C(=O)N[C@@H](CCCNC(=N)N)C(=O)NCC(=O)N[C@@H](CCCNC(=N)N)C(=O)N[C@@H](CCCCNC(=O)COCCOCCNC(=O)COCCOCCNC(=O)CC[C@H](NC(=O)CCCCCCCCCCCCCCCCC(=O)O)C(=O)O)C(=O)NCC(=O)NCC(=O)N[C@@H](CO)C(=O)N[C@@H](CCCCNc1c(NCCCCCN(O)C(=O)CCC(=O)NCCCCCN(O)C(=O)CCC(=O)NCCCCCN(O)C(C)=O)c(=O)c1=O)C(=O)O)C(C)C [zirconium-89 labelled] |  | ex vivo gamma counting | rat, colon content | subcutaneous, 3 nmol/kg, 168 h, together with: [89Zr]-labelled peptide |  | tissue uptake | 0.05 %ID/g
CO[C@H]1C[C@@H]2CC[C@@H](C)[C@@](O)(O2)C(=O)C(=O)N2CCCC[C@H]2C(=O)O[C@H]([C@H](C)C[C@@H]2CC[C@@H](OC(=O)NCCOCCOCCOCCOCCOCCOCCOCCOCCC(=O)N3CCc4cc(Cn5nc(-c6ccc7oc(N)nc7c6)c6c(N)ncnc65)ccc4C3)[C@H](OC)C2)C[C@@H](O)[C@H](C)/C=C(\C)[C@@H](O)[C@@H](OC)C(=O)[C@H](C)C[C@H](C)/C=C/C=C/C=C/1C |  |  | patients with advanced solid tumours | intravenous, 6 mg weekly, any grade |  | diarrhoea incidence | 16.7%
CC(=O)c1c(C)c2cnc(Nc3ccc(C4CCN(CCS(C)(=O)=O)CC4)cn3)nc2n(C2CCCC2)c1=O |  |  | human, dose-escalation trial, plasma | oral, 75 mg twice daily, day 1, single dose |  | clearance | 1920 mL/min
C[C@]1(CO)Cc2ncn(-c3ccc(C#N)c(Cl)c3)c2C(=O)O1 |  |  | Japanese subjects | 3 mg single dose |  | drug-related Headache incidence | 0%
C1=Cc2nc1cc1ccc([n-]1)c(C1CC1)c1nc(cc3ccc([n-]3)c2C2CC2)C=C1.CC(=O)[O-].[Mn+3] |  | LC-MS/MS | Sprague-Dawley rat, plasma | oral gavage, dose not given, 120 min, individual rat Rat2 |  | plasma concentration | 151 ng/mL
N[C@@H]1c2ccccc2OC12CCN(c1cnc3c(N4CCCc5ncccc54)n[nH]c3n1)CC2 |  |  | advanced metastatic solid tumour patients | oral, 20 mg once daily |  | TEAE leading to interruption | 33.3%
Cc1cc(NC2CCN(C(=O)OC3CCN(C(=O)/C=C/CN(C)C)C3)CC2)n2ncc(C(C)C)c2n1 (stereo not drawn) |  |  | dog | oral, dose not given, daily for 4 weeks |  | highest non-severely toxic dose (body surface area) | 40 mg/m2
CC(C)n1c(C2CCNCC2)nc2c([N+](=O)[O-])c(Br)c(Br)cc21 |  | measured: Sepsis | AML patients | 125 mg |  | adverse events causing discontinuation | 4%
COc1ccc(N2C(=O)N(c3c(C)cccc3Cl)Cc3cnc(Nc4ccc(C5CCN(C)CC5)cc4OC)nc32)nc1 | STK24 (Homo sapiens, UniProt Q9Y6E0) | kinase activity, inhibitor |  | 0.5 µM, MST3 |  | inhibition | 27%
CN1CCN(c2cc(-c3ccncc3)c(-c3ccc4ccccc4c3)nn2)CC1 | HRH3 (Homo sapiens, UniProt Q9Y5N1) | antagonist, FLIPR |  | 10 µM |  | inhibition | 75.2%

A few entries again:
Compound | tested on | assay | test system | conditions | how to read | measurement | result
CC(=O)c1c(C)c2cnc(Nc3ccc(C4CCN(CCS(C)(=O)=O)CC4)cn3)nc2n(C2CCCC2)c1=O |  |  | human, dose-escalation trial, plasma | oral, 75 mg twice daily, day 1, single dose |  | clearance | 1920 mL/min
N[C@@H]1c2ccccc2OC12CCN(c1cnc3c(N4CCCc5ncccc54)n[nH]c3n1)CC2 |  |  | advanced metastatic solid tumour patients | oral, 20 mg once daily |  | TEAE leading to interruption | 33.3%
O=C(O)CCCOc1ccc(F)cc1-c1cc(-c2ccccc2C(F)(F)F)n(-c2ccccc2)n1 |  | measured: ALT | Crl:CD(SD) rats, male, serum | iv, 25 µg/kg, 14 days |  | serum enzyme activity | 34.7 ± 3.9 U/L
